Measurements collected from several papers.
Protocols differ between the studies behind these lines.
Target: Casein kinase I isoform delta (CSNK1D, Homo sapiens, UniProt P48730)
Chain of UniProt P48730 (whole entry, looked up): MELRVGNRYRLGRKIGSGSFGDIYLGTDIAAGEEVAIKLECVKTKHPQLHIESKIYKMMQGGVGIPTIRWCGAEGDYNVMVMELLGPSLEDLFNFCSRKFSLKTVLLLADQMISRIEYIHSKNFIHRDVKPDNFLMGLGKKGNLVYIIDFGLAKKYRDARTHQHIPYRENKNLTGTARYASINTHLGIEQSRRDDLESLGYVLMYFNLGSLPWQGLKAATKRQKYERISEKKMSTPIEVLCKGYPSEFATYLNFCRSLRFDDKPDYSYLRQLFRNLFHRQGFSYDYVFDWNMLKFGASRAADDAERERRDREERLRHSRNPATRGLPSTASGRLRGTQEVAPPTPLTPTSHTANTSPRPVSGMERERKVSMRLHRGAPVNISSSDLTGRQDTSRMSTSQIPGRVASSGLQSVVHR

`CC(=O)Nc1ccc(-c2ccnc(NCC3CCC3)n2)cc1` gave a remaining binding of 15% (cell-free assay, competition with immobilised ligand; 10 µM).
`Cc1cccc(-c2ccc3nc(NC(=O)C4CCCCC4)nn3c2)c1` has a remaining activity of 87% (enzyme activity, Dundee kinase panel; 10 µM).
`C=CC(=O)N1CCc2ccc(-n3c(=O)ccc4cnc5ccc(-c6cnn(C)c6)cc5c43)cc21` has a remaining binding of 90% (KINOMEscan; 1 µM; reference: DMSO control).
With `NC(=O)C[C@H]1CCc2sc3ncnc(O[C@H]4CC[C@H](N5CCOCC5)CC4)c3c21` the inhibition was 24% (enzyme activity, inhibitor; 10 µM).
The remaining activity of `COc1c(OCCCN2CCOCC2)ccc2c1N=C(NC(=O)c1cnc(N)nc1)N1CCN=C21` is reported as 109% (kinase activity, inhibitor; 1 µM; reference: untreated control).
With `Cc1ccc(C)c(-c2ccc3nc(NC(=O)C4CCCCC4)nn3c2)c1` the remaining activity was 92% (enzyme activity, Dundee kinase panel; 10 µM).
For `CC(C)=CC1OC(C)(C)C2C=C3C(=O)C(Cl)=CC(O)C3C3C(O)C4OC4C(=O)C132` (stereo not shown), the remaining binding was 91% (cell-free assay, competition with immobilised ligand; 10 µM).
The inhibition of `CN1CCN(Cc2ccc(-c3ccc(CO[C@H]4CCC[C@@H]4NC(=O)c4cc(-c5cnn(C)c5)cnc4N)cc3)cc2)CC1` is reported as 1% (enzyme activity, inhibitor; 0.1 µM).
`Cc1ccc(-c2c(/C=C(\C#N)C(=O)NC(C)C)n(CCCO)c3ncnc(N)c23)cc1` has a remaining binding of 72% (cell-free assay, competition with immobilised ligand; 1 µM).
The remaining activity of `Nc1nc(Nc2ccccc2)sc1C(=O)c1ccccc1` is reported as 14% (enzyme activity, inhibitor; 10 µM).
With `COc1cc(Nc2nccc(-c3cnn4nc(OC)ccc34)n2)cc(C(F)(F)F)c1` the remaining binding was 100% (binding, competition with immobilised ligand; 1 µM).
`Cc1cnc2nc1Nc1cccc(c1)COC/C=C/COCc1cc(ccc1OCCN1CCOCC1)N2` has a remaining binding of 100% (binding; 0.1 µM).
For `COc1ccc(NC(=O)Nc2ccc3c(c2)C(=O)N(C(C)CO)CC(C)C(CN(C)Cc2ccc4c(c2)OCO4)O3)cc1` (stereo not shown), the remaining binding was 100% (binding, competition with immobilised ligand; 10 µM).
The inhibition of `CN1CC[C@@H](COc2cnc(C#N)cc2-c2ccn3nc(NC(=O)C4CC4)cc3c2)C1` is reported as 2% (enzyme activity, inhibitor; 1 µM).
For `O=C(Cc1ccc(OCc2ccccc2)cc1)NC1(C(=O)O)CCN(C(=O)c2ccc(-c3cccc(Cl)c3)cc2)CC1`, “activity vs control” read 96% (enzyme activity, inhibitor; 10 µM).
`CN1CCN(Cc2ccc(NC(=O)c3cccc(C#Cc4cnc(N)c5ncccc45)c3)cc2C(F)(F)F)CC1` gave a remaining binding of 88% (cell-free assay, competition with immobilised ligand; 50 nM).
`CNS(=O)(=O)Nc1nccc(Cc2c(C)c3ccc(Oc4ncccc4F)cc3oc2=O)c1F` gave a remaining binding of 97% (cell-free assay, competition with immobilised ligand; 10 µM).
`CNC1C[S+]2CC[S+]3CC[S+](C1)[Ru-4]321([N]=C=S)[n]2c3ccc(OC)cc3c3c4c(c5cc(F)c[n+]1c5c32)C(=O)NC4=O` (stereo not shown) has a remaining binding of 72% (KinomeScan; 0.1 µM; reference: untreated).
`CCn1cc(C(=O)O)c(=O)c2c(N)c(F)c(NC3CCCCC3)cc21` has an inhibition of 0.4% (kinase activity; 0.1 µM, added: ATP at Km).

For quick reference, copied from above:
For `COc1ccc(NC(=O)Nc2ccc3c(c2)C(=O)N(C(C)CO)CC(C)C(CN(C)Cc2ccc4c(c2)OCO4)O3)cc1` (stereo not shown), the remaining binding was 100% (binding, competition with immobilised ligand; 10 µM).
